Published values collected from several papers.
Lines come from different studies, so protocols differ. Values joined by “and” are separate records of one study, mostly repeats; a detail may differ.
Target: Casein kinase I isoform alpha (CSNK1A1, Homo sapiens, UniProt P48729)

The inhibition of `CCn1cc(C(=O)O)c(=O)c2c(N)c(F)c(NC3CCCCC3)cc21` is reported as 3.4% (kinase activity; 0.1 µM, added: ATP at Km).
`COCC12C(=O)NC3C4(C(OC)CC1O)C1CC5(O)C(OC)C(O)C(OC(C)=O)(C1C5OC(=O)c1ccccc1)C3(O)C(OC)C24` (centres unmarked) gave a remaining activity of 93% and 107% (kinase activity, inhibitor, ProQinase kinase profiling; 25 µM; baseline: control).
For `NC(=O)C[C@H]1CCc2sc3ncnc(O[C@H]4CC[C@H](N5CCOCC5)CC4)c3c21`, the inhibition was 4% (enzyme activity, inhibitor; 10 µM).
Under “activity vs control”, `O=C(Cc1ccc(OCc2ccccc2)cc1)NC1(C(=O)O)CCN(C(=O)c2ccc(-c3cccc(Cl)c3)cc2)CC1` is recorded as 79% (enzyme activity, inhibitor; 10 µM).
`COc1cc(Nc2nccc(-c3cnn4nc(OC)ccc34)n2)cc(C(F)(F)F)c1` gave a remaining binding of 74% (binding, competition with immobilised ligand; 1 µM).
`COc1ccc(O)cc1-c1c[nH]c2ncc(-c3cncc(C(=O)N(C)C)c3)cc12` has an inhibition of 17.5% (binding, competition with immobilised ligand; 0.2 µM).
`C=CC(=O)N1Cc2nc(-c3cc(-c4cc(Cl)cnc4Cl)c(F)cc3F)n(-c3ccncn3)c2C1` has an inhibition of 11.7% (cell-free assay, inhibitor; 1 µM).
`CCN1CCN(Cc2ccc(C(=O)Nc3ccc(C)c(NCc4cnc5[nH]ccc5c4OC)c3)cc2C(F)(F)F)CC1` has a remaining binding of 66% (binding, competition with immobilised ligand; 1 µM).
With `Cc1ccc(-c2c(/C=C(\C#N)C(=O)NC(C)C)n(CCCO)c3ncnc(N)c23)cc1` the remaining binding was 100% (cell-free assay, competition with immobilised ligand; 1 µM).
`COc1cc(-n2cc3cc(F)cc(C(N)=O)c3n2)cc(Cl)c1C1CC(O)(CCO)Cc2ccccc21` (centres unmarked) gave an inhibition of 0.4% (enzyme activity, inhibitor; 10 µM).
The remaining binding of `CNC1C[S+]2CC[S+]3CC[S+](C1)[Ru-4]321([N]=C=S)[n]2c3ccc(OC)cc3c3c4c(c5cc(F)c[n+]1c5c32)C(=O)NC4=O` (centres unmarked) is reported as 90% (KinomeScan; 0.1 µM; baseline: untreated).
The remaining binding of `CNC(=O)C1CCN(c2cc(C)c(F)cc2NC(=O)c2ccc(-c3cc(O)ccc3C)c(C)c2)CC1` is reported as 22% (binding, competition with immobilised ligand; 1 µM).
For `COc1c(Cl)cccc1Nc1c(-c2ccncc2C#C[C@@]2(C)CCCN2C(=O)/C=C/CN(C)C)[nH]c2c1C(=O)NCC2`, the remaining binding was 84% (cell-free assay, competition with immobilised ligand; 3 µM).
For `C=CC(=O)N1CCCC(n2c(=O)c3ncccc3n(Cc3ccc(Oc4ccccc4)cc3)c2=O)C1` (centres unmarked), the remaining binding was 100% (cell-free assay, competition with immobilised ligand; 1 µM).
`COc1cc(Nc2nc(C)cc(-c3cnn4nc(OC)ccc34)n2)cc(C(F)(F)F)c1` gave a remaining activity of 77% (inhibitor; 1 µM; baseline: control).
With `CC(C)=CC1OC(C)(C)C2C=C3C(=O)C(Cl)=CC(O)C3C3C(O)C4OC4C(=O)C132` (centres unmarked) the remaining binding was 78% (cell-free assay, competition with immobilised ligand; 10 µM).
`Cc1cnc2nc1Nc1cccc(c1)COC/C=C/COCc1cc(ccc1OCCN1CCOCC1)N2` has a remaining binding of 99% (binding; 0.1 µM).
For `Nc1ncc(-c2cc(-c3cnn(CC(F)(F)F)c3)ncc2F)nc1C(=O)NC1CNCC(F)C1` (centres unmarked), the remaining activity was 82.6% (enzyme activity; 1 µM; baseline: DMSO control).
The inhibition of `NC(=O)[C@@H](O)C[C@H]1CCc2sc3ncnc(O[C@H]4CC[C@H](N5CCOCC5)CC4)c3c21` is reported as 17% (enzyme activity, inhibitor; 10 µM).
`CN1CCN(Cc2ccc(-c3ccc(CO[C@H]4CCC[C@@H]4NC(=O)c4cc(-c5cnn(C)c5)cnc4N)cc3)cc2)CC1` gave an inhibition of 9% (enzyme activity, inhibitor; 0.1 µM).
For `Nc1ncc2c(n1)-c1c([nH]c3ccc(C4=CCOCC4)cc13)CCC2`, the remaining binding was 94% (binding, competition with immobilised ligand; 1 µM).
`O=c1c(-c2ccc(Cl)c(CN3CCOCC3)c2)coc2cc(O)ccc12` has a remaining activity of 100% (enzyme activity, inhibitor; 1 µM).
The remaining binding of `C=CC(=O)N1CCc2ccc(-n3c(=O)ccc4cnc5ccc(-c6cnn(C)c6)cc5c43)cc21` is reported as 97% (KINOMEscan; 1 µM; baseline: DMSO control).

Some of these lines once more:
`CN1CCN(Cc2ccc(-c3ccc(CO[C@H]4CCC[C@@H]4NC(=O)c4cc(-c5cnn(C)c5)cnc4N)cc3)cc2)CC1` gave an inhibition of 9% (enzyme activity, inhibitor; 0.1 µM).
`C=CC(=O)N1Cc2nc(-c3cc(-c4cc(Cl)cnc4Cl)c(F)cc3F)n(-c3ccncn3)c2C1` has an inhibition of 11.7% (cell-free assay, inhibitor; 1 µM).
`COc1cc(-n2cc3cc(F)cc(C(N)=O)c3n2)cc(Cl)c1C1CC(O)(CCO)Cc2ccccc21` (centres unmarked) gave an inhibition of 0.4% (enzyme activity, inhibitor; 10 µM).
